Results pooled from the literature.
Each numbered part is a random draw from the data of one study; scales do not carry over between parts.

Sample 1
Target: Sal-like protein 4, full length isoform A (SALL4, Homo sapiens, UniProt Q9UJQ4, residues 1-1053)
UniProt Q9UJQ4, sequence (whole entry, looked up): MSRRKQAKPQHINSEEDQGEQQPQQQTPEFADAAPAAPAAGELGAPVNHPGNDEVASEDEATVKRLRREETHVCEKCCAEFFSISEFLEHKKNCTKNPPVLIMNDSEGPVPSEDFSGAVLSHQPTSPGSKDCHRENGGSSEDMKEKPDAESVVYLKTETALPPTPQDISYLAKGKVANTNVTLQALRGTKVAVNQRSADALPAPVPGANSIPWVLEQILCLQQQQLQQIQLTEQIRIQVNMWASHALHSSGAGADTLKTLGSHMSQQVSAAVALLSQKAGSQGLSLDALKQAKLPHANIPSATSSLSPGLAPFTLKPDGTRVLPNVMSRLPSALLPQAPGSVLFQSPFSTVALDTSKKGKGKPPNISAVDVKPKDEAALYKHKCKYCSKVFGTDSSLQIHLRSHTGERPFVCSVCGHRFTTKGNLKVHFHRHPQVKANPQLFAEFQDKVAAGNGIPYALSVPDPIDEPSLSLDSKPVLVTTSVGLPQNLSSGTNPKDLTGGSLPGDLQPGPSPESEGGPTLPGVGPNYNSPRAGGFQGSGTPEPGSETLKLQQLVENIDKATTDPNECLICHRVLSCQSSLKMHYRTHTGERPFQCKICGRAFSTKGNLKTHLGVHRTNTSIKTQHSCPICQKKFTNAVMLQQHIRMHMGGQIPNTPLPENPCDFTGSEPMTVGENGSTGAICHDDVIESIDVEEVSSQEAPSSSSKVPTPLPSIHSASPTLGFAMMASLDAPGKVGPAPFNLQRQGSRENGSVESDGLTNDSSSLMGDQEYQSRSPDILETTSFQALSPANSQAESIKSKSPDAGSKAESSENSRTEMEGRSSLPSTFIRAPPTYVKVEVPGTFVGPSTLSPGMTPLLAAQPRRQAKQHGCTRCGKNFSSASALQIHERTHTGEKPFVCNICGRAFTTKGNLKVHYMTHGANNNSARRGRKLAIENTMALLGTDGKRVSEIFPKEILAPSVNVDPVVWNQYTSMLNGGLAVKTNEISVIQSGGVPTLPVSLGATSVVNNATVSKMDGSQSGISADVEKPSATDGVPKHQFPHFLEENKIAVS
Method: universal PBM
Molecule type: double-stranded DNA, one strand shown
Medium: in vitro
Tested at: 600 nM
Notes: 8-mer, flanks averaged, mean of replicates
Direction: higher = stronger binding
Measurement: E-score
CAACAATG: 0.0286
ACACTTAA: 0.202
ACAGTCTG: -0.0865
GGCCTCAC: -0.318
AGCATATG: 0.0735

Sample 2
Target: Interferon regulatory factor 3, full length, phosphomimetic (IRF3, Homo sapiens, UniProt Q14653, residues 1-427, S386D/S396D/S398D/S402D/T404D/S405D)
UniProt Q14653, sequence (whole entry, unmodified, looked up): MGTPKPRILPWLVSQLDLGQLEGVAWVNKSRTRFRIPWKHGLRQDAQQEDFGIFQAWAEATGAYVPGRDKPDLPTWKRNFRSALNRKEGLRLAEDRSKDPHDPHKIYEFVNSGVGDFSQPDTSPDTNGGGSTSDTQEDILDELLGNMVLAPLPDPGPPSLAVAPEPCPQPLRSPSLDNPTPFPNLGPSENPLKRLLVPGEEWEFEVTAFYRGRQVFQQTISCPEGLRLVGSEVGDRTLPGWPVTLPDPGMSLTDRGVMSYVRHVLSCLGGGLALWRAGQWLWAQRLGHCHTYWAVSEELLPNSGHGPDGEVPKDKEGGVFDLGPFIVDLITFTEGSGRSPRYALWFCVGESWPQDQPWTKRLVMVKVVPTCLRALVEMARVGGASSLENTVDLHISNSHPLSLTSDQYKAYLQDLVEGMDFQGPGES
Method: protein-binding microarray
Molecule type: double-stranded DNA, one strand shown
Medium: in vitro
Tested at: 2540 nM top
Notes: 60-bp whole probe
Together with: salmon DNA 0.4 mg/ml
Baseline: random background probes
Direction: higher = stronger binding
Measurement: fitted relative affinity
Constant ends, left off below: GCCTAGCAC … GTGCTAGGTCTTGATTCGCTTGACGCTGCTG
GACGATCTCAGACTGGCGAC: 0.501 z-score
GACGATCTCAGTTTCAAGAC: 1.46 z-score
TCACTTTCCCCTTCCTAACT: 5.33 z-score
TTAGGACTGGTTATCCTTTA: 0.492 z-score
TTAGGTTTCCTACTACTTTA: 5.77 z-score

Sample 3
Target: Histone acetyltransferase KAT6A, winged helix 1, GST fusion (KAT6A, Homo sapiens, UniProt Q92794, residues 1-85)
Method: protein binding microarray
Molecule type: double-stranded DNA, one strand shown
Medium: in vitro
Tested at: not given
Notes: 8-mer, flanks averaged, mean of 2 arrays, mostly near background
Baseline: not given
Direction: higher = stronger binding
Measurement: E-score
Target sequence (chain): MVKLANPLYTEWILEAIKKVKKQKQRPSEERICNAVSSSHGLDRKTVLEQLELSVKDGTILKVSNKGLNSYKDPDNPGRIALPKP
TATCTCAA: -0.265
TAGTATAA: -0.0465
GGCTCCAC: -0.00059
AAGGCGGG: 0.279
CATGAGCA: -0.232

Other studies, line by line
PhoQ, residues 284 288 289 292 302 303 TVTVVA
fold induction (PhoP, residues 12 14 15 18 19 SMASL (Escherichia coli, UniProt P23836); Sort-seq, refers to: YFP reporter; E. coli; PhoQ-PhoP variant library, together with: 10 µM Mg2+; baseline: high Mg2+ state, higher = stronger signaling): 9.5

For quick reference, copied from above (sample 1):
ACACTTAA: 0.202
ACAGTCTG: -0.0865
